Experimental data from different studies.
Numbered parts are unrelated; each lists some results of a single study. Substitutions count along the parent as printed.

Study 1 — technique: RNA Bind-n-Seq; form: RNA; sample: in vitro; concentration: not given; setting: RNA with constant flanks, ends assumed; reference: input RNA pool; reading: higher = stronger binding
Target: RING finger protein unkempt homolog, zinc fingers 1-6, GST-SBP tag (UNK, Homo sapiens, UniProt Q9C0B0, residues 30-357)
Chain of UniProt Q9C0B0 (30-357, looked up): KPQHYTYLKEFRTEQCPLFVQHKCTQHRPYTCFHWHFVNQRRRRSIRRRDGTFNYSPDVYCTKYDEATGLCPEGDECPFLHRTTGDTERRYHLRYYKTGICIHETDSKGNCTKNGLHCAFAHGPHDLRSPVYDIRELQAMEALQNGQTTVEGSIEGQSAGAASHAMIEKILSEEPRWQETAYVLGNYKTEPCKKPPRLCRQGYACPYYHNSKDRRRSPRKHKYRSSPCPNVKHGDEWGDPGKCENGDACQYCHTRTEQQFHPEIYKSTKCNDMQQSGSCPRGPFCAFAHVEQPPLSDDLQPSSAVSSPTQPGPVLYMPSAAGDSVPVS
Shared flanks, not repeated: GGGAGUUCUACAGUCCGACGAUC … CAACAGAGGAUUGAGCAUCA
Strand	bound/input enrichment
UCGGAGUUUGAUCCAUUUUUUAGUCUCUUUGCAUUCACCAACAAAAUUACUUCUGUGCACCGCCGAAUCAUUUGGUCUUGUGACUGGAGUCCUGAUAACAAGUACUUCUUCACUGGAAGU	1.11 ratio
AUUCAGGCACAACUGACUGGUUCACAGCACUCCUUACAUAGUUAUCUAUCAAAUUCAAGUGCCGUUAAUUUUCAGGAAACAACCAGGCAGUCAUCUUUAUCCUGUAGCCCAAUUGGAGAU	17.2 ratio
GACCUAGCAAAUAAAAGAGCAGUAGAUUUCCAGGAAGCACAGUCCUAUGCAGAUGACAACCGUUUAUUAUUCAUGGAGACAUCCGCUAAAACAUCAAUGAAUGUAAAUGAAAUAUUCAUG	0.594 ratio
UAAAUCCAUUUGUAAGCAUUUAUCCCAUAUAUUUUAAAUUCAAGAAAAAUUGUGUUUAUCUUCCGAAUUUUGUAUUCAAUACUUUAUGUACUAUGUGACUCAUGCUUCUGGAUAAAUAAA	1.61 ratio
GGGACAAUUCAUCUCUUUCGAAAACCACAAAGAUCCUUUUUUGGCAAGUUGUUACGGGAAUUCCGACUUGUAGCAGCUGACCGAAGGUCCUGGAAGAUACUGCUCUUUGGUGUAAUAAAC	0.099 ratio
AAGAUUUGGAGAGGAUGUGCUUGAAGUAAUCAAGGACUCUAAUCCUGUAGACAAGUGCAAAUCCGAUCCAAACAAGGCAUAUAUUCAGAUUACCUACGUGGAGCCCUUCUUUGACACCUA	0.134 ratio
ACGAUCGGGGCCUACAUCAACACAACGCACUCACGGCUCACACACAUCAGUCCUCGGCACUACCGUGAGUUUAUAGAGUUCCUCAGCAAAGCCCGAGAGACCUUCUUAAUGGCGCAUGAU	0.218 ratio
CGGGGGGCUUUCUGUGAAGUAAGACCAGAUGAUAAAAGGAUUCUGGAAUUUUACAGCAAGUCCGGCUGUUUUGAAAUUGCAAAAAUGGAAGGAUUUCCAAAGGAUGUGGUUAUACUUGGU	0.128 ratio

Study 2 — target: CCND3, cyclin fold, Cln2 fusion (human); technique: yeast growth competition, sequencing; sample: yeast; setting: weak parent motif; reference: not given; reading: higher = stronger binding
Starting sequence: BRCA2 docking peptide (human); PSIKRNLLNEFDR; partner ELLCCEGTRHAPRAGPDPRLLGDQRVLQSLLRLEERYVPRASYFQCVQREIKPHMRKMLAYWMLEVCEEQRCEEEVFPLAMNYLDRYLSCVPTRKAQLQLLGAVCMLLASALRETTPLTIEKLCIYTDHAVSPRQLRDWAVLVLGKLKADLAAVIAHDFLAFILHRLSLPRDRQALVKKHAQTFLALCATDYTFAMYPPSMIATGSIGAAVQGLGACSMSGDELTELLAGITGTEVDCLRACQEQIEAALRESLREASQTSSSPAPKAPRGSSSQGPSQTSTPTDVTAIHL
Change	normalised enrichment score
PSIARNLLNEFDR [K4A]	0.154
PSIKRNLLNEFSR [D12S]	0.242
PSIGRNLLNEFDR [K4G]	0.0268
PSIKRNLLDEFDR [N9D]	0.173
PSIKRNLLNEFCR [D12C]	0.16
PSIKRLLLNEFDR [N6L]	0.103
ESIKRNLLNEFDR [P1E]	0.142
NSIKRNLLNEFDR [P1N]	0.0721
PSIKCNLLNEFDR [R5C]	0.21
PSIKWNLLNEFDR [R5W]	0.148
PSIKRNLCNEFDR [L8C]	0.088
PSIKRNLLNEFDQ [R13Q]	0.147
CSIKRNLLNEFDR [P1C]	0.212
PSIKTNLLNEFDR [R5T]	0.0417
PSFKRNLLNEFDR [I3F]	0.0557
PSIKRNRLNEFDR [L7R]	0.155
PSIKRSLLNEFDR [N6S]	0.129
PSIKRNLLNSFDR [E10S]	0.104
DSIKRNLLNEFDR [P1D]	0.114
PSIKRNLLNEFVR [D12V]	0.182
PSIKRNPLNEFDR [L7P]	0.0674

Study 3 — technique: DHFR PCA, deep sequencing; sample: yeast; with: (+)-ABA 2500 µM; reference: wild-type fitted maximum; reading: higher = stronger binding
Target: ABI1, truncated, D143A, DHFR fusion (Arabidopsis thaliana)
Setting: methotrexate growth selection, single substitutions
Starting sequence: PYL1, truncated, DHFR fusion (Arabidopsis thaliana); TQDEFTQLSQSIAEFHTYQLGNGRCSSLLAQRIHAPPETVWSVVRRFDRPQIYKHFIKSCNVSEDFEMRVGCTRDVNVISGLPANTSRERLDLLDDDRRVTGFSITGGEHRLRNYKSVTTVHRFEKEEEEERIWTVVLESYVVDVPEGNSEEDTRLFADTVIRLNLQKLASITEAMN; partner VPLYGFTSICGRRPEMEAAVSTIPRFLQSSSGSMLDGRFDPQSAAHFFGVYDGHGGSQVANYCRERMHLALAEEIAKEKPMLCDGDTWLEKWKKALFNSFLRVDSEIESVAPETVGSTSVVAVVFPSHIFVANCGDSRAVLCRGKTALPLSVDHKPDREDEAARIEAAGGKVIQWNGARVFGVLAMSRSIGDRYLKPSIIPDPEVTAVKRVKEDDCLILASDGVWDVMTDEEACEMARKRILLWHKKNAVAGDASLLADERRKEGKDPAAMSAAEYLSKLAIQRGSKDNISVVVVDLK
Change	relative binding score
P146F	65.2%
F66C	99.4%
A30L	99.4%
S140W	42.7%
H122W	35.4%
L112V	82.2%
V62Y	89.4%
L28K	98.5%
G102D	-8.33%
C72F	95.4%
L169H	-1.94%
G21I	99.2%
E125C	101%
V142Q	96.6%
L82F	79.9%
P37C	93.7%

Study 4 — technique: protein-binding microarray; form: double-stranded DNA, one strand shown; sample: in vitro; concentration: 0.8 µM; setting: whole 60-bp probe, no competitor; reading: higher = stronger binding; shared flanks, not repeated: … GTCTTGATTCGCTTGACGCTGCTG
Target: Centromere-binding protein 1, full length, N-terminal tag (CBF1, Saccharomyces cerevisiae, UniProt P17106, residues 1-351)
Chain of UniProt P17106 (whole entry, looked up): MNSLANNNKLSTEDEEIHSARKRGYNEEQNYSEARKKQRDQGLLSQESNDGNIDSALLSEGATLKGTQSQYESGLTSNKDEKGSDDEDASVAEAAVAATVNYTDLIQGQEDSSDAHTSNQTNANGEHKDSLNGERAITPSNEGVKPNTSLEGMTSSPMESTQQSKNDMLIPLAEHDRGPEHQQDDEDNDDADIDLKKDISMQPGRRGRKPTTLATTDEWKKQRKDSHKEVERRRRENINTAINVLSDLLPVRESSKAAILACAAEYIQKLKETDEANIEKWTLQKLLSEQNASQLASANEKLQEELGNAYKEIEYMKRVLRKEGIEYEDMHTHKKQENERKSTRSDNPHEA
Strand	fluorescence intensity [a.u.]
GAACCACTTTTTATTTTTGTCACGTAGTGCACTTAG	812
GAAAACCCTGTTATTGACATCAGAAAACAACAGTAG	594
CCTAACTACTATAACTACACCACATAGCTTCGTACA	563
CTAATCCTTTCCTGTCACATGAAGAGAAAAAGGTTC	2550
CTAAAATGCCAACGTGGTCAGACATCAATTCAATTC	674
CTAGCCTCAAAGAACCCCGTGTGCGGGTATGGCTTC	545
CCTAACTACTATAGTGATATGCAATAGCTTCGTACA	509
GAAACCTACGTATCTGATGTGTATACTTCTCTTTAG	481
CTACTATAGACGCCGCACATGCTTTCAAATAGATTC	778
CTAGCCCGTAGAGGACACGTTAATAGAAGACATTTC	498
CTAATGTTTCACCGGCACGTTTTGTTTTGTCCCTTC	684

Study 5 — technique: RNA Bind-n-Seq; form: RNA; sample: in vitro; concentration: 365 nM; reference: no-protein control; reading: higher = stronger binding
Target: RNA binding protein fox-1 homolog 2, RRM domain, GST-SBP tag (RBFOX2, Homo sapiens, UniProt O43251-10, residues 100-194)
Setting: natural RNA segment, single round, ends assumed
Shared flanks, not repeated: GGGAGUUCUACAGUCCGACGAUC … UGGAAUUCUCGGGUGCCAA
Residues (chain): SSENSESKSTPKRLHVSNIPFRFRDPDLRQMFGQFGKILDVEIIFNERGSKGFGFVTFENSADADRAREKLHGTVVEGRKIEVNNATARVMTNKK
Strand	RBNS enrichment (R)
GUUUGUGAAGGCAGCAGUUAAGGGCACAAAGACAGCCAUGGGGACAUUUAUGUAAAUAUGUUUAAUUGCCACACUGCAGCUGAACGGUGUGUAGUAUUUUCCCAGUCAGC	0.643
CCACCAGCAGAUUAUAAUUUUGUCAGCAAUGCUAUUAUCUCUAAUUAGUGCCACCAGACUAGACCUGUAUCAUUCAUGGUAUAAAUUUUACUCUUGCAACAUAACUACCA	0.596
GCUUUCCUAUAAGCCACCUCCAGGGUCCAGGGGCUUUCUCUCUCUCUCCGAAGCCCCUGGACCUGUUUCCUUGUCAUUUGACCCUCGUCUGUGCCCGCGGAGACCUCCUC	0.53
GGCAAGAAUGCAGUGUUGGGCCUUUCAACCACUAGAACAAACUUUUUUCAAUUGACAGUUGCAGAAUUGUGGAGUGUUUUUACAUUGAUCUUUUGCUAAUGCAGUUAGCA	1.3
UCUGGUACUUGUAUUUUCUAUGUUAAAUGAUCUUUAUAUGUGUUGGAUUAACAAAUAUUUUGAGUUUCCUGAAAACAAACAGAAACAUUAAUGGUAUUGAAGUGUGUUAG	0.357
UGUGCUCAGCCUUCUCUGCAGCCUCUGUGAGUUUUCAGCACGUGUGCAGCCACACAGGCUGCAACCUUCCACUCGCAGCCGCUGCUGACACCUGGCUGCCGACCUCACUC	0.377
GACUCCUGUUCUUAAACACAAGUGGUUUUUCCUAAUUCCAGAGGAACUGGACGUCACCAAACAAGGUUGCAUUUUACUUUUGCAUCCAGUUUUUAUAGUUUUCCACAACC	0.58
UGAUGAAUAUAUUUAAAUUUUUUUAUUGUGGAGCAUAGGAAUUGUCCCCCAUUCCUAGGCCUAACCUUGCUUGAACAGGGUUGGGCAAAGCUGCGGUAUUAUUGGUUGAG	0.37
GAAUGGCAACAGGUUUGCUGGGGCAGAGGCACUGCCUAAGUGGGAGCAUGCACGUGAAAAUAGAAAGGUAAUUUAACAACACACAGACACCCAGAGACUUGGUCUCUGCA	20.7
UGAGGGGCCUCAGGGCUUGUGGGGGGUAGGCUGAGACCCCACCACCAAAGGUUAAGUGAGGUCCCCUUGAUUGAGGACUUCACCCCUUGAUUAAAGCAACUUCUGCUUCA	0.323
CACCUUCAAUGACUUCUAAUUUAUAUUAUCCAUAGGUUUCUCUCCCUCCUUCUCCUUCUCACACACAACUGUCCAUACUAACAAGUUUGGUGCAUGUCUGUUCUUCUGUA	1.9
CACUUUAUUUCUGACCCCGUGGCUUCGGCUGAGACCUGUGUAACCUGCUGCCCCCUCCACCCCCAACCCAGUCCUACCUGUCACACCGGACGGACCCGCUGUGCCUUCUA	3.7

Study 6 — technique: protein-binding microarray; form: double-stranded DNA, one strand shown; sample: in vitro; concentration: not given; reading: higher = stronger binding
Target: Protein C-ets-1 (ETS1, Homo sapiens, UniProt P14921, residues 1-441, K379A, full length assumed)
Setting: k-mer, scored over probes, only values ≥0.25
Residues (chain): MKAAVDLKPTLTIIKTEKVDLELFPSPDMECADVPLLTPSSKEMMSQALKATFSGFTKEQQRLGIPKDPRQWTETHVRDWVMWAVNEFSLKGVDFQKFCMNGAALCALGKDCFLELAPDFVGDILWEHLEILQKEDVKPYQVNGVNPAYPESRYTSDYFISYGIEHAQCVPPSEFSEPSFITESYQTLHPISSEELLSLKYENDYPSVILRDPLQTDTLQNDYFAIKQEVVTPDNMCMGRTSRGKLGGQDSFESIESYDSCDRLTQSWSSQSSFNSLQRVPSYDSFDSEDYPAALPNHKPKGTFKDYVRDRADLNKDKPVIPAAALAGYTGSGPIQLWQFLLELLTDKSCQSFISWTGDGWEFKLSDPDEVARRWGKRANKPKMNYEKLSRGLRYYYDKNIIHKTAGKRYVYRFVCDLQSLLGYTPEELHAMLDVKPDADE
Strand	E-score
CCGGGTAC	0.311
ACGACGGA	0.299
CGTGTGTA	0.302
TAACCACA	0.261
TTGGCAAA	0.26
ACCGGAAA	0.489
AGTAGTAC	0.264
ATATCTAC	0.262
ACCATCAG	0.264
ATCGGTTA	0.265
ATCCGGTA	0.41
ACAGGTAC	0.254
GATAATAC	0.273
GCCCCTCC	0.406
CCCGGATA	0.27
TAACGACA	0.257
GGACCGGA	0.375
ACTTCCGG	0.478
GCATACAC	0.261
CGGTAACA	0.327

For quick reference, copied from above (study 4):
Strand	fluorescence intensity [a.u.]
CCTAACTACTATAACTACACCACATAGCTTCGTACA	563
CTAATCCTTTCCTGTCACATGAAGAGAAAAAGGTTC	2550
CTAAAATGCCAACGTGGTCAGACATCAATTCAATTC	674
CTAGCCTCAAAGAACCCCGTGTGCGGGTATGGCTTC	545
CCTAACTACTATAGTGATATGCAATAGCTTCGTACA	509
GAAACCTACGTATCTGATGTGTATACTTCTCTTTAG	481
CTACTATAGACGCCGCACATGCTTTCAAATAGATTC	778
CTAGCCCGTAGAGGACACGTTAATAGAAGACATTTC	498
